Assay results gathered from unrelated publications.
Each line is one published result; not all experiments were run side by side. Numbers after ± are the reported error.

O=C(c1ccc([N+](=O)[O-])o1)N1CCc2ccccc2C1  relative translation (Trypanosoma cruzi; reporter mRNA translation, inhibitor, measured: capped polyadenylated Renilla luciferase mRNA; cell-free extract; concentration not given; relative to: control RNA): 109%
O=C(O)CCCOc1ccc([18F])cc1-c1cc(-c2ccccc2C(F)(F)F)n(-c2ccccc2)n1  tissue uptake (mouse, urine; intravenous, dose not given, 60 min): 0.05 ± 0.03 %ID/g
O=C(NCC1OC2CCC=CCCC2O1)c1ccc(COCCOCCOCC[18F])cc1 (stereo not shown)  tissue uptake (healthy female BALB/c nude mice, pancreas; intravenous, 7.4 MBq per mouse, 30 min): 2 ± 0.1 %ID/g
[11CH3]N1CCC(NC(=O)c2cc(-c3c(O)cc(O)cc3Oc3ccc([N+](=O)[O-])cc3)on2)CC1  tissue uptake (Wistar rat, female, healthy, blood; intravenous, 10 min): 9.7 ± 1.1 %ID
COc1cccc(OC)c1-c1cc(C(=O)NC2(C(=O)O)C3CC4CC(C3)CC2C4)nn1-c1ccc(C(=O)N(C)CCCN(C)CCCN(C)C(=O)[C@H](CCCCNC(=O)[C@H](CC(C)C)NC(=O)C2OC2C(=O)O)NC(=O)CN2CCN(CC(=O)[O-])CCN(CC(=O)[O-])CCN(CC(=O)[O-])CC2)cc1C(C)C.[177Lu+3] (mixture of isomers)  tissue uptake (mouse, HT-29 xenograft, lung; 24 h post injection): 0.5 %ID/g
N#C[C@@H]1CC(F)(F)CN1C(=O)CNC(=O)c1ccnc2c(NC(=O)[C@H](CCCCNC(=O)CCOCCOCCOCCOCCOCCOCCNC(=O)CN3CCN(CC(=O)[O-])CCN(CC(=O)[O-])CCN(CC(=O)[O-])CC3)NC(=O)CCCc3ccc(I)cc3)cccc12.[177Lu+3]  tissue uptake (mouse, U-87 MG tumour xenograft, lung; 96 h): 0.35 ± 0.24 %ID/g
[123I]c1ccc2nc(-c3ccc(-n4ccnn4)nc3)cn2c1  tissue uptake (male Wistar rat, large intestine; intravenous, 4 MBq, 30 min): 0.118 ± 0.003 %ID/g
CC(=O)N(Cc1cccnc1)c1cccc(-c2nc3ccccc3s2)c1  relative translation (Trypanosoma cruzi; reporter mRNA translation, inhibitor, measured: capped polyadenylated Renilla luciferase mRNA; cell-free extract; concentration not given; relative to: control RNA): 102%
COc1cccc(OC)c1-c1cc(C(=O)NC2(C(=O)O)C3CC4CC(C3)CC2C4)nn1-c1ccc(C(=O)NCCNC(=O)[C@H](CCCCNC(=O)[C@H](CC(C)C)NC(=O)C2OC2C(=O)O)NC(=O)CN2CCN(CC(=O)[O-])CCN(CC(=O)[O-])CCN(CC(=O)[O-])CC2)cc1C(C)C.[177Lu+3] (mixture of isomers)  tissue uptake (mouse, HT-29 xenograft, lung; 168 h post injection): 0.9 %ID/g
CC(C)c1noc(C2CCN(c3ncnc(Nc4ccc(OCC[18F])cc4)c3[N+](=O)[O-])CC2)n1  tissue uptake (ex vivo biodistribution after PET; C57BL/J male mice, muscle; 60 min): 0.11 ± 0.05 %ID/g
CC(C)Cc1ccc(C(C)C(=O)N[C@@H](CCCCNC(=O)CCOCCOCCOCCOCCOCCOCCNC(=O)CN2CCN(CC(=O)[O-])CCN(CC(=O)[O-])CCN(CC(=O)[O-])CC2)C(=O)Nc2cccc3c(C(=O)NCC(=O)N4CC(F)(F)C[C@H]4C#N)ccnc23)cc1.[177Lu+3] (stereo partly shown)  tissue uptake (mouse, U-87 MG tumour xenograft, salivary gland; 1 h): 17.4 ± 0.88 %ID/g
COc1cccc(OC)c1-c1cc(C(=O)NC2(C(=O)O)C3CC4CC(C3)CC2C4)nn1-c1ccc(C(=O)N(C)CCOCCN(C)C(=O)[C@H](CCCCNC(=O)[C@H](CC(C)C)NC(=O)C2OC2C(=O)O)NC(=O)CN2CCN(CC(=O)[O-])CCN(CC(=O)[O-])CCN(CC(=O)[O-])CC2)cc1C(C)C.[177Lu+3] (mixture of isomers)  tissue uptake (mouse, HT-29 xenograft, HT-29 tumour; 72 h post injection): 2.55 %ID/g
CC(=O)N([O-])CCCCCNC(=O)CCC(=O)N([O-])CCCCCNC(=O)CCC(=O)N([O-])CCCCCN.[89Zr+4]  tissue uptake (gamma counting; healthy Balb/c mice, muscle; intravenous, 1 h, 89Zr-labelled complex): 0.13 ± 0.03 %ID/g
CCCC[C@H](NC(=O)CNC(=O)CNC(=O)[C@H](CCCCNC(=O)[C@H](CC(=O)O)NC(=O)C(C)c1ccc(CC(C)C)cc1)NC(=O)CN1CCN(CC(=O)O)CCN(CC(=O)O)CCN(CC(=O)O)CC1)C(=O)N[C@H]1CC(=O)NCCCC[C@@H](C(N)=O)NC(=O)[C@H](Cc2c[nH]c3ccccc23)NC(=O)[C@H](CCCNC(=N)N)NC(=O)[C@@H](Cc2ccccc2)NC(=O)[C@H](Cc2c[nH]cn2)NC1=O (stereo partly shown) [lutetium-177 labelled]  tissue uptake (C57 mouse, lung; intravenous, 2 h, with: 10 µg NDP-MSH co-injection): 1.22 ± 0.56 %ID/g
N#C[C@@H]1CC(F)(F)CN1C(=O)CNC(=O)c1ccnc2c(NC(=O)CCOCCOCCOCCOCCOCCOCCNC(=O)[C@H](CCCCNC(=O)CN3CCN(CC(=O)[O-])CCN(CC(=O)[O-])CCN(CC(=O)[O-])CC3)NC(=O)CCCc3ccc(I)cc3)cccc12.[177Lu+3]  tissue uptake (mouse, U-87 MG tumour xenograft, lung; 4 h): 2.57 ± 0.39 %ID/g
COc1cccc(OC)c1-c1cc(C(=O)NC2(C(=O)O)C3CC4CC(C3)CC2C4)nn1-c1ccc(C(=O)N(C)CCCN(C)C(=O)[C@H](CCCCNC(=O)[C@H](CC(C)C)NC(=O)C2OC2C(=O)O)NC(=O)CN2CCN(CC(=O)[O-])CCN(CC(=O)[O-])CCN(CC(=O)[O-])CC2)cc1C(C)C.[177Lu+3] (mixture of isomers)  tissue uptake (mouse, HT-29 xenograft, lung; 72 h post injection): 0.24 %ID/g

Some of these lines once more:
N#C[C@@H]1CC(F)(F)CN1C(=O)CNC(=O)c1ccnc2c(NC(=O)[C@H](CCCCNC(=O)CCOCCOCCOCCOCCOCCOCCNC(=O)CN3CCN(CC(=O)[O-])CCN(CC(=O)[O-])CCN(CC(=O)[O-])CC3)NC(=O)CCCc3ccc(I)cc3)cccc12.[177Lu+3]  tissue uptake (mouse, U-87 MG tumour xenograft, lung; 96 h): 0.35 ± 0.24 %ID/g
[123I]c1ccc2nc(-c3ccc(-n4ccnn4)nc3)cn2c1  tissue uptake (male Wistar rat, large intestine; intravenous, 4 MBq, 30 min): 0.118 ± 0.003 %ID/g
